Experimental data collected from several papers.
Protocols differ between the studies behind these lines. “And” joins repeats or separate records; there may be more than shown. ± gives the spread as reported.
rep main protease: Replicase polyprotein 1ab, main protease (rep, Severe acute respiratory syndrome coronavirus 2, UniProt P0DTD1)

O=C(CSc1nc2c(c(=O)[nH]1)CCCC2)NNC(=O)c1ccc([N+](=O)[O-])cc1
inhibition (SARS-CoV-2; viral adsorption, plaque reduction; 31.25 µM): 20 ± 3.3%

Cl[TeH]1(Cl)(Cl)OCCO1
inhibition (rep main protease; reporter gene (mKate2), inhibitor; 20 µM): -0.178%

Cn1cnc(Cn2c(=O)[nH]/c(=N\c3cc4cn(C)nc4cc3Cl)n(Cc3cc(F)c(F)cc3F)c2=O)n1
dry mouth TEAE, Severe severity (human, normal renal function; oral, 375 mg): 0%

CC(=O)Nc1ncc([N+](=O)[O-])s1
inhibition (SARS-CoV-2; viral replication; Vero E6, USA-WA1/2020; 2.5 µM): 41.8%

CC(C)[C@@H]1CC(O)O[C@@H]([C@@H](C)[C@H]2CC(=O)[C@@H]3[C@@H]4[C@@H](O)[C@H](O)[C@H]5[C@@H](O)[C@H](O)CC[C@]5(C)[C@H]4CC[C@]23C)C1 (stereo partly shown)
inhibition (SARS-CoV-2; viral replication, mNeonGreen reporter virus; 50 µM): 30.8%

Cn1cnc(Cn2c(=O)[nH]/c(=N\c3cc4cn(C)nc4cc3Cl)n(Cc3cc(F)c(F)cc3F)c2=O)n1
inhibition (SARS-CoV-2; viral replication; Vero C1008, XBB.1; 0.1543 µM): 90%

O=C(CSc1nc2c(c(=O)[nH]1)CCCC2)NNC(=O)c1ccc(Cl)cc1
inhibition (SARS-CoV-2; viral replication, plaque reduction; 62.5 µM): 40 ± 3.3%

OC[C@@H]1[C@@H](O)[C@H](O)[C@H]2[C@@H](O)CCN21
inhibition (SARS-CoV-2; viral replication, mNeonGreen reporter virus; 50 µM): 0.55%

CC(C)(C)OC(=O)N[C@H]1CCCCC/C=C\[C@@H]2C[C@@]2(C(=O)NS(=O)(=O)C2CC2)NC(=O)[C@@H]2C[C@@H](OC(=O)N3Cc4cccc(F)c4C3)CN2C1=O
inhibition (rep main protease; reporter gene (Gaussia luciferase), inhibitor; 20 µM): 2.73%

OC[C@H]1O[C@H]([S-])[C@H](O)[C@@H](O)[C@@H]1O.[Au+]
inhibition (SARS-CoV-2; viral replication; USA-WA1/2020; 2.5 µM): 44.2%

CNC(=O)[C@@H](NC(=O)[C@H](CC(C)C)[C@H](O)C(=O)NO)C(C)(C)C
viability difference (C2C12; 10 µM, together with: AP venom; baseline: venom alone): 55.4%

C1=C(c2ccc(CN3CCCCC3)cc2)N2CCN=C2c2ccccc21
inhibition (SARS-CoV-2; viral replication; Vero E6, USA-WA1/2020; 2.5 µM): 70.5%

O=C(/C=C/c1ccc(O)c(O)c1/C=C/c1ccc(O)c(O)c1)O[C@H](Cc1ccc(O)c(O)c1)C(=O)O
inhibition (SARS-CoV-2; cytopathic effect; Vero E6; 12.5 µM, first run): 0%

COc1cc2c(cc1N1C[C@@H](C)N[C@@H](C)C1)N(C(=O)c1ccc(-c3ccc(-c4noc(C)n4)cc3C)cc1)CC2
inhibition (SARS-CoV-2; viral replication; Vero E6, USA-WA1/2020; 2.5 µM): 76.5%

Cc1nn(-c2ccc(Cl)cc2)c2c1C(c1ccc(Cl)cc1)C(C#N)=C(N)O2 (stereo not shown)
inhibition (SARS-CoV-2; viral replication; Vero; 10 µM): 69.2%

Cc1cccn2c(=O)c3cc(C(=O)Nc4ccc(N(C)C)cc4)n(C)c3nc12
inhibition (SARS-CoV-2; viral replication, qPCR; Vero C1008; 10 µM): 94.5%

Nc1ncnc2c([C@@H]3N[C@H](CO)[C@@H](O)[C@H]3O)c[nH]c12
inhibition (Marburg marburgvirus; viral glycoprotein surface expression; HeLa, Musoke; 25 µM): 95.3%

CC[C@H](C)[C@H](NC(=O)[C@H](CC(C)C)NC(=O)[C@H](Cc1c[nH]c2ccccc12)NC(=O)[C@H](CCC(N)=O)NC(=O)[C@@H](NC(=O)[C@H](Cc1ccccc1)NC(=O)[C@H](C)NC(=O)[C@H](CCCCNC(=O)COCCOCCNC(=O)COCCOCCNC(=O)CC[C@H](NC(=O)CCCCCCCCCCCCCCCCCCC(=O)O)C(=O)O)NC(=O)[C@H](CCC(N)=O)NC(=O)[C@H](C)NC(=O)[C@@H](NC(=O)[C@H](CCCCN)NC(=O)[C@H](CC(=O)O)NC(=O)[C@H](CC(C)C)NC(=O)C(C)(C)NC(=O)[C@@H](NC(=O)[C@H](CO)NC(=O)[C@H](Cc1ccc(O)cc1)NC(=O)[C@H](CC(=O)O)NC(=O)[C@H](CO)NC(=O)[C@@H](NC(=O)[C@H](Cc1ccccc1)NC(=O)[C@@H](NC(=O)CNC(=O)[C@H](CCC(=O)O)NC(=O)C(C)(C)NC(=O)[C@@H](N)Cc1ccc(O)cc1)[C@@H](C)O)[C@@H](C)O)[C@@H](C)CC)[C@@H](C)CC)C(C)C)C(=O)N[C@@H](C)C(=O)NCC(=O)NCC(=O)N1CCC[C@H]1C(=O)N[C@@H](CO)C(=O)N[C@@H](CO)C(=O)NCC(=O)N[C@@H](C)C(=O)N1CCC[C@H]1C(=O)N1CCC[C@H]1C(=O)N1CCC[C@H]1C(=O)N[C@@H](CO)C(N)=O
severe hypoglycaemia (healthy human; 8.0 mg, single ascending dose): 0%

CC(C)(O)c1ccc2c(c1)ncn2-c1cccc(-c2ccccc2C#N)c1
inhibition (SARS-CoV-2; viral replication; Vero E6, USA-WA1/2020; 2.5 µM): 47.9%

Cc1nn(-c2ccc(Cl)cc2)c2c1C(c1ccc(Cl)cc1Cl)C(C#N)=C(N)O2 (stereo not shown)
inhibition (SARS-CoV-2; viral replication; Vero; 10 µM): 67.2%

CC(C)(C)[C@H](NC(=O)C(F)(F)F)C(=O)N1C[C@H]2[C@@H]([C@H]1C(=O)N[C@H](C#N)C[C@@H]1CCNC1=O)C2(C)C
inhibition (SARS-CoV-2; viral replication, infectious virus; Vero E6; 0.00015 µM): 3.98%

CC(C)=CCc1c(O)ccc(C(=O)/C=C/c2ccc(O)cc2)c1O
inhibition (SARS-CoV-2; cytopathic effect; Vero E6; 0.7812 µM, first run): 0%

O=C[C@H](C[C@@H]1CCNC1=O)NC(=O)[C@H](CC1CCCCC1)NC(=O)c1cc2ccccc2[nH]1
inhibition (SARS-CoV-2; viral replication, NP immunofluorescence; Vero E6, 2019-nCoV-WIV04; 5 µM, together with: remdesivir 0 µM): 98.2% and 100%

C/C1=C\CC[C@@]2(C)O[C@@H]2[C@H]2OC(=O)[C@H](CN(C)C)[C@@H]2CC1
inhibition (SARS-CoV-2; viral replication; Vero E6, USA-WA1/2020; 2.5 µM): 40.8%

COc1ccc(C[C@@H]2c3cc(Oc4cc(C[C@@H]5c6cc(O)c(OC)cc6CCN5C)ccc4O)c(OC)cc3CCN2C)cc1
inhibition (SARS-CoV-2; cytopathic effect; Vero E6; 50 µM, replicate run): 25%

Some of these lines once more:
C1=C(c2ccc(CN3CCCCC3)cc2)N2CCN=C2c2ccccc21
inhibition (SARS-CoV-2; viral replication; Vero E6, USA-WA1/2020; 2.5 µM): 70.5%

CC(=O)Nc1ncc([N+](=O)[O-])s1
inhibition (SARS-CoV-2; viral replication; Vero E6, USA-WA1/2020; 2.5 µM): 41.8%

O=C[C@H](C[C@@H]1CCNC1=O)NC(=O)[C@H](CC1CCCCC1)NC(=O)c1cc2ccccc2[nH]1
inhibition (SARS-CoV-2; viral replication, NP immunofluorescence; Vero E6, 2019-nCoV-WIV04; 5 µM, together with: remdesivir 0 µM): 98.2% and 100%

Cc1cccn2c(=O)c3cc(C(=O)Nc4ccc(N(C)C)cc4)n(C)c3nc12
inhibition (SARS-CoV-2; viral replication, qPCR; Vero C1008; 10 µM): 94.5%
